{"data": "Assay results pooled from the literature", "UCHL1": "Ubiquitin carboxyl-terminal hydrolase isozyme L1 (UCHL1, Homo sapiens, UniProt P09936)", "note": "Compare with care: the assays were run in different laboratories.", "UniProt P09936, sequence (whole entry, looked up)": "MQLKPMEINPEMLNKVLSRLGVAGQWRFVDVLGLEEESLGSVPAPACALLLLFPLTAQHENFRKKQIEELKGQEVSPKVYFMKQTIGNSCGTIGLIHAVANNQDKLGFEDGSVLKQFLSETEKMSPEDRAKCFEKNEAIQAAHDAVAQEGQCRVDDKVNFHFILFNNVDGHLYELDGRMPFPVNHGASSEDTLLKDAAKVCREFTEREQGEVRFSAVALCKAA"}
{"SMILES": "Cc1cc(-c2nnc(N)nc2-c2ccc(F)cc2)cc(Cl)n1", "test": "refers to: Arthritis", "test system": "IO-naive mCRPC patients, male", "conditions": "oral, dose not given, treatment-related, all grades", "measurement": "patients with immune-mediated AE", "value": "0%"}
{"SMILES": "CNC(=O)c1ccc(-c2cnc3ncc(Cc4ccc5ncccc5c4)n3n2)cc1F", "test": "refers to: Fatigue", "test system": "cancer patients", "conditions": "oral, dose not given, dose escalation, grade 3-4", "measurement": "patients with adverse event", "value": "8%"}
{"SMILES": "CC(C)C(=O)Nc1ccc(C(=O)CCl)cc1", "target or system": "UCHL1", "test": "covalent, intact protein LC-MS", "conditions": "12.5 µM", "measurement": "labelling", "value": "37.9%"}
{"SMILES": "O=C(Nc1nc2cccc(-c3ccc(CN4CCS(=O)(=O)CC4)cc3)n2n1)C1CC1", "test system": "rheumatoid arthritis patients", "conditions": "oral, 100 mg twice daily, 4 weeks, regardless of relatedness", "measurement": "patients with skin disorders", "value": "0%"}
{"SMILES": "Cc1cc(NC2CCN(C(=O)OC3CCN(C(=O)/C=C/CN(C)C)C3)CC2)n2ncc(C(C)C)c2n1 (stereo not drawn)", "test": "Phase I dose escalation CTCAE v4.0, refers to: Hypomagnesemia", "test system": "patients with advanced solid tumours", "conditions": "dose not given, TIW dosing any grade", "measurement": "patients with adverse event", "value": "0%"}
{"SMILES": "COc1ccc([C@@H](O)c2cc(-c3ncnc4cc(N5CCOCC5)ccc34)c(F)cc2Cl)nn1", "test system": "locally advanced rectal cancer patients", "conditions": "150 mg, drug-related adverse events, together with: capecitabine and radiotherapy", "measurement": "patients with anemia", "value": "17%"}
{"SMILES": "CCOc1c([C@H](C)n2nc(C)c3c(N)ncnc32)cc(Cl)c(F)c1[C@@H]1CNC(=O)C1", "test": "refers to: QTcF change ≤30 ms", "test system": "previously treated B-cell malignancy", "conditions": "oral, 10 mg once daily, baseline QTcF ≤450 ms", "scale": "baseline: baseline", "measurement": "patients", "value": "100%"}
{"SMILES": "O=C(CCl)N1c2ccccc2SCC1c1ccccc1 (stereo not drawn)", "target or system": "UCHL1", "test": "covalent, intact protein LC-MS", "conditions": "12.5 µM", "measurement": "labelling", "value": "10.6%"}
{"SMILES": "CNC(=O)c1cc(Oc2ccc(NC(=O)Nc3cc(C(C)(C)C)nn3-c3ccc4ncccc4c3)c(F)c2)ccn1", "test system": "patients", "conditions": "oral, dose not given, cycles 1 and 2, Low Cmax subgroup", "measurement": "patients with nervous system disorders", "value": "18%"}
{"SMILES": "FC(F)(F)c1ccc(CNc2ccc(Cc3c[nH]c4ncc(Cl)cc34)cn2)cn1", "test": "refers to: gastroesophageal reflux disease", "test system": "non-TGCT solid tumour patients", "conditions": "oral, 1000 mg/day, all grades", "measurement": "patients with treatment-related adverse event", "value": "0%"}
{"SMILES": "C[C@@H](Nc1cc(F)cc(F)c1)c1cc(C(=O)N(C)C)cc2c(=O)cc(N3CCOCC3)oc12", "test": "refers to: Fatigue", "test system": "advanced solid tumour patients", "conditions": "oral, dose not given, dose expansion", "measurement": "patients discontinuing for AE", "value": "0%"}
{"SMILES": "NC(=O)N1c2ccccc2C=Cc2ccccc21", "test system": "male patients", "conditions": "oral, dose not given, treatment-related adverse events", "measurement": "patients with Flatulence", "value": "0%"}
{"note": "For quick reference, copied from above:"}
{"SMILES": "COc1ccc([C@@H](O)c2cc(-c3ncnc4cc(N5CCOCC5)ccc34)c(F)cc2Cl)nn1", "test system": "locally advanced rectal cancer patients", "conditions": "150 mg, drug-related adverse events, together with: capecitabine and radiotherapy", "measurement": "patients with anemia", "value": "17%"}
